Published values pooled from the literature.
Lines come from different studies, so protocols differ.
Technique: steady-state kinetics
B1: LIP (Thermomyces lanuginosus, UniProt O59952); chain EVSQDLFNQFNLFAQYSAAAYCGKNNDAPAGTNITCTGNACPEVEKADATFLYSFEDSGVGDVTGFLALDNTNKLIVLSFRGSRSIENWIGNLNFDLKEINDICSGCRGHDGFTSSWRSVADTLRQKVEDAVREHPDYRVVFTGHSLGGALATVAGADLRGNGYDIDVFSYGAPRVGNRAFAEFLTVQTGGTLYRITHTNDIVPRLPPREFGYSHSSPEYWIKSGTLVPVTRNDIVKIEGIDATGGNNQPNIPDIPAHLWYFGLIGTCL
B2: enzyme (Bacillus pumilus, UniProt A8FFI9); chain EARSIAWSVDEFFKNREGTFVIQEVKEKSPWVYNKKRAKERFAPQSTFKVANALIGLQTGAVRDEYDIKYWDGVKREIDNWNRDHTLGSGMRDSVVWYYQAMARDIGEERMNHWVKAIHYGNKDISGGIDQFWLSSTLRISPIEQVRFLKQLYEETLPFDLKNMRTVKRMMVQEEEKHATLYGKTGSGSDIGWYVGFIKHEHKTYILATNIKGTGIEAKDITYRILKKYHLMEASV
B3: enzyme A178R/D177A/G159A/M179S/P184R (Levilactobacillus brevis, UniProt Q03Q85); chain MKVTVVGCTHAGTFAIKQILAEHPDAEVTVYERNDVISFLSCGIALYLGGKVADPQGLFYSSPEELQKLGANVQMNHNVLAIDPDQKTVTVEDLTNHAQTTESYDKLVMTSGSWPIVPKIPGIDSDRVKLCKNWAHAQALIEDAKEAKRITVIGAGYIAAELAEAYSTTGHDVTLIARSARVMRKYFDADFTDVIEQDYRDHGVQLALGETVESFTDSATGLTIKTDKNSYETDLAILCIGFRPNTDLLKGKVDMAPNGAIITDDYMRSSNPDIFAAGDSAAVHYNPTHQNAYIPLATNAVRQGILVGKNLVKPTVKYMGTQSSSGLALYDRTIVSTGLTLAAAKQQGLNAEQVIVEDNYRPEFMPSTEPVLMSLVFDPDTHRILGGALMSKYDVSQSANTLSVCIQNENTIDDLAMVDMLFQPNFDRPFNYLNILAQAAQAKVAQSVNA
B4: FMO3 E308G (Homo sapiens, UniProt P31513); chain GKKVAIIGAGVSGLASIRSCLEEGLEPTCFEKSNDIGGLWKFSDHAEEGRASIYKSVFSNSSKEMMCFPDFPFPDDFPNFMHNSKIQEYIIAFAKEKNLLKYIQFKTFVSSVNKHPDFATTGQWDVTTERDGKKESAVFDAVMVCSGHHVYPNLPKESFPGLNHFKGKCFHSRDYKEPGVFNGKRVLVVGLGNSGCDIATELSRTAEQVMISSRSGSWVMSRVWDNGYPWDMLLVTRFGTFLKNNLPTAISDWLYVKQMNARFKHENYGLMPLNGVLRKEPVFNDELPASILCGIVSVKPNVKEFTGTSAIFEDGTIFEGIDCVIFATGYSFAYPFLDESIIKSRNNEIILFKGVFPPLLEKSTIAVIGFVQSLGAAIPTVDLQSRWAAQVIKGTCTLPSMEDMMNDINEKMEKKRKWFGKSETIQTDYIVYMDELSSFIGAKPNIPWLFLTDPKLAMEVYFGPCSPYQFRLVGPGQWPGARNAILTQWDRSLKPMQTRVVGRLQKPCFFFHWLKLFAIPILLIAVFLVLT
B5: enzyme R108A (Sinorhizobium meliloti, UniProt Q92UV7); chain MTNAEVTIAVRHEPMRIAGRLVDTDDRVEVRYPWNDTVVGTVPAGRAEHAREAFAIAAAYQPKLTRYERQKILLATAEALAARKEEISDVITLELGISKADSLYEVGAAFDVFTLAGQMCIRDDGEIFSCDLTPHGKARKIFTMREPLTAISAITPFNHPLNMVAHKVAPAIATNNCVVVKPTELTPMTALLLADILYEAGLPPEMLSVVTGWPADIGMEMITNPHVDLVTFTGSVPVGKLIAANAHYKRQVLELGGNDPLIILNDLSDDDLARAADLAVAGATKNSGQRCTAVKRILCQESVADRFVPLVLERAKRLRFGDPMDRSTDLGTVIHEKAAALFEERVMRAAEEGADILYHPGRSGALLPPIVVDRVPHQSDLVLEETFGPIIPIVRVPDDDDATITLSNSTAFGLSSGVCTNDYRRMQKYIAGLKVGTVNIWEVPGYRIEMSPFGGIKDSGNGYKEGVIEAMKSFTNVKTFSLPWP
UniProt O48715, sequence (whole entry, looked up): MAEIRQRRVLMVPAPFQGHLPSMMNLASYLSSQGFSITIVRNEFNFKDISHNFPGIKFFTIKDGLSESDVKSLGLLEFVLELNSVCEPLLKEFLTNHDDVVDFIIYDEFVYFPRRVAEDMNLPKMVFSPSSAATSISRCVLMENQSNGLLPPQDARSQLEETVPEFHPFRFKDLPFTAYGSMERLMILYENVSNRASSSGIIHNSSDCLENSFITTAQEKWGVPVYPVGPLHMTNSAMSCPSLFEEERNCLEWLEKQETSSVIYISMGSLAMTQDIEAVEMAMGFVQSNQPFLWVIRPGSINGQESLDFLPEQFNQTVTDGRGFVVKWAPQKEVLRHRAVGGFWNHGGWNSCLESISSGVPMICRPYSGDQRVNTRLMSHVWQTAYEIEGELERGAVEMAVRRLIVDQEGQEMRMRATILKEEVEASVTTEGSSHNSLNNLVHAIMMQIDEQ
UniProt O60656, sequence (whole entry, looked up): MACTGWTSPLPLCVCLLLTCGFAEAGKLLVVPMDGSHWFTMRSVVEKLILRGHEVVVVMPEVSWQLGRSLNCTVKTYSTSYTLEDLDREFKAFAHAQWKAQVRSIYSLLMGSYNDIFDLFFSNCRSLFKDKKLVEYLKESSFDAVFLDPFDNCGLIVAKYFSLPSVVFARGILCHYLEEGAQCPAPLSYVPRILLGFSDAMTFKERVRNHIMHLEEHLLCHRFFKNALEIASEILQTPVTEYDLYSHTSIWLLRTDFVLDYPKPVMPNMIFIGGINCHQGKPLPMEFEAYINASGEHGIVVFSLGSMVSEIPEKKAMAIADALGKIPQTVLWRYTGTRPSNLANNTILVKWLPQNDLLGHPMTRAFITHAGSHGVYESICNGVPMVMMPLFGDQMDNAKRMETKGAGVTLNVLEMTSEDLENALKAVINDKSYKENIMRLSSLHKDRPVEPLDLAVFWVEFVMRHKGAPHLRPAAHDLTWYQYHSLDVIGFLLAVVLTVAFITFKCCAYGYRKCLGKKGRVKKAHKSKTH
UniProt P14780, sequence (whole entry, looked up): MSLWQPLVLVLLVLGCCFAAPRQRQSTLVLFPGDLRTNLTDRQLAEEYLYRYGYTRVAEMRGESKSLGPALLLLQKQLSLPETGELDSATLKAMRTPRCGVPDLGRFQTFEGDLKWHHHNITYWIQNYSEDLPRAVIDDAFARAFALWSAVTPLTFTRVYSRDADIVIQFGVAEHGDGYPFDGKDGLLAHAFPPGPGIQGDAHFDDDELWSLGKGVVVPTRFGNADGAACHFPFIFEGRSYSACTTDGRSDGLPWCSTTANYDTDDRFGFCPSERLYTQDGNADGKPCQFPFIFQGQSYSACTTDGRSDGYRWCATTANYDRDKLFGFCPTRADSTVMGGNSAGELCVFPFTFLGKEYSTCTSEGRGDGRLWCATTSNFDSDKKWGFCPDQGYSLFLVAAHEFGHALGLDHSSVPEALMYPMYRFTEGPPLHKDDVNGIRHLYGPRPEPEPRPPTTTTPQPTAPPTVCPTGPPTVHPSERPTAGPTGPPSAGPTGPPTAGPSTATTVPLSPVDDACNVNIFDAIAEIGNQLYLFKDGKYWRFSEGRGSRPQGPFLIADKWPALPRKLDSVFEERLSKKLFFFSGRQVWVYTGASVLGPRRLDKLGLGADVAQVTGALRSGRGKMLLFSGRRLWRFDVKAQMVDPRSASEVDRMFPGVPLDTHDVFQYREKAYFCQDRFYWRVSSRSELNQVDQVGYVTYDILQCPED
UniProt P0AB87, sequence (whole entry, looked up): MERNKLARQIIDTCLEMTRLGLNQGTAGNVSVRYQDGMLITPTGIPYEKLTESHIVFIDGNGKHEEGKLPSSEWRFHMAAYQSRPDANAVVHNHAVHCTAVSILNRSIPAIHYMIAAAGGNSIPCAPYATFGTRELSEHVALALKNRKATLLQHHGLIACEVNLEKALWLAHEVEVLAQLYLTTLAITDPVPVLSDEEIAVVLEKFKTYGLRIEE
UniProt P9WEW1, sequence (whole entry, looked up): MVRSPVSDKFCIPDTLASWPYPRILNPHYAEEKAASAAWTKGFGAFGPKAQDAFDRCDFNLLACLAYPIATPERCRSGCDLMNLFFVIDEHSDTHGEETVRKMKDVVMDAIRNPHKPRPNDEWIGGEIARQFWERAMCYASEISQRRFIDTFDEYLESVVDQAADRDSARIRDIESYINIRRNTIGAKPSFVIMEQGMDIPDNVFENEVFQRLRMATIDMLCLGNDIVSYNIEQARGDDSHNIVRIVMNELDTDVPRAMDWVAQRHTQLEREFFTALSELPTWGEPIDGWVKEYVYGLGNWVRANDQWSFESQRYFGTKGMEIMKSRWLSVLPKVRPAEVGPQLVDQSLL

With `B1 (LIP)` the Km was 1.03 µM (CCCC(=O)Oc1ccc([N+](=O)[O-])cc1; pH 8.2, 25 °C, free enzyme).
The Km of `B2 (enzyme)` is reported as 4.2 µM (C[C@@H](O)[C@H]1C(=O)N2C(C(=O)O)=C(S[C@@H]3CN[C@H](C(=O)N(C)C)C3)[C@H](C)[C@H]12; pH 7).
With `B3` the Km was 264 µM (NC(=O)C1=CN([C@@H]2O[C@H](COP(=O)(O)OP(=O)(O)OC[C@H]3O[C@@H](n4cnc5c(N)ncnc54)[C@H](O)[C@@H]3O)[C@@H](O)[C@H]2O)C=CC1; pH 7.5, 37 °C).
The Km of `B4 (FMO3 E308G)` is reported as 1700 µM (CN1CCC[C@H]1c1cccnc1; HEK293 microsomes; 37 °C, not purified, added: NADPH regenerating system).
With `enzyme (Arabidopsis thaliana, UniProt O48715)` the Km was 25.8 µM (O=c1ccn([C@@H]2O[C@H](CO[P@@](=O)(O)O[P@@](=O)(O)O[C@H]3O[C@H](CO)[C@@H](O)[C@H](O)[C@H]3O)[C@@H](O)[C@H]2O)c(=O)[nH]1; pH 7.5, 25 °C).
With `MMP9 (Homo sapiens, UniProt P14780)` the Km was 940 µM (CC(=O)NCC(=O)N1CCC[C@H]1C(=O)N[C@@H](CC(C)C)C(=O)NCC(=O)N[C@@H](CC(C)C)C(=O)N[C@@H](CO)C(=O)N[C@@H](CC(C)C)C(=O)NCC(=O)N[C@@H](CCCCN)C(N)=O).
`B5 (enzyme R108A)` gave a Km of 18 µM (NC(=O)c1ccc[n+]([C@@H]2O[C@H](COP(=O)(O)OP(=O)(O)OC[C@H]3O[C@@H](n4cnc5c(N)ncnc54)[C@H](O)[C@@H]3O)[C@@H](O)[C@H]2O)c1; pH 7.5, 30 °C, cofactor varied).
`protein (Stereum hirsutum, UniProt P9WEW1)` has a Km of 1.91 µM (CC(C)=CCC/C(C)=C/CC/C(C)=C/CO[P@@](=O)(O)OP(=O)(O)O; pH 8, NaCl 200 mM, added: FPP 1–100 µM).
`enzyme (Babesia duncani, UniProt A0AAD9PLN9)` has a Km of 32.1 µM (NCCCCN; pH 7.5, 37 °C).
`fucA (Escherichia coli, UniProt P0AB87)` has a Km of 1160 µM (CSC[C@@H](O)[C@@H](O)C(=O)COP(=O)(O)O; pH 7.8, 30 °C).
`UGT1A9 (Homo sapiens, UniProt O60656)` gave a Km of 0.45 µM (COc1cc(-c2cc(=O)c3c(O)cc(O)cc3o2)cc(OC)c1OC; pH 7.4, 37 °C).
The Km of `Ptb (Listeria monocytogenes, UniProt Q8Y7B7)` is reported as 53.2 µM (CC(C)CC(=O)SCCNC(=O)CCNC(=O)[C@H](O)C(C)(C)COP(=O)(O)OP(=O)(O)OC[C@H]1O[C@@H](n2cnc3c(N)ncnc32)[C@H](O)[C@@H]1OP(=O)(O)O; pH 7.5, 25 °C, apparent).

Excerpt of the above:
The Km of `Ptb (Listeria monocytogenes, UniProt Q8Y7B7)` is reported as 53.2 µM (CC(C)CC(=O)SCCNC(=O)CCNC(=O)[C@H](O)C(C)(C)COP(=O)(O)OP(=O)(O)OC[C@H]1O[C@@H](n2cnc3c(N)ncnc32)[C@H](O)[C@@H]1OP(=O)(O)O; pH 7.5, 25 °C, apparent).
